Results from different studies.
Every numbered part comes from another study and shows a few of its results, in no order. Positions count from the first letter of the parent shown.

Study 1 — target: CEP164, C-terminal peptide (human); technique: DHFR complementation, deep sequencing; matrix: yeast; relative to: wild type; reading: higher = weaker binding; measurement: binding free energy change
Setting: single substitutions, model-inferred values
Parent: PDZK1, PDZ domain 2 (human); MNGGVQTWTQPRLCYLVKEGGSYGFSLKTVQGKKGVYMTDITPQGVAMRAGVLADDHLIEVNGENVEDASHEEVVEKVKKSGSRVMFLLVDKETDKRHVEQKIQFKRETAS; partner HNRVKVYRF
K34L: 0.405 kcal/mol
I59D: 0.653 kcal/mol
L58R: 0.632 kcal/mol
E60H: 0.486 kcal/mol
K33Y: 0.32 kcal/mol
S81L: 0.711 kcal/mol
G32P: 0.959 kcal/mol
H57E: -0.631 kcal/mol

Study 2 — technique: universal PBM; molecule type: double-stranded DNA, one strand shown; matrix: in vitro; tested at: 600 nM; reading: higher = stronger binding; measurement: E-score
Target: Sal-like protein 4, full length isoform A (SALL4, Homo sapiens, UniProt Q9UJQ4, residues 1-1053)
Sequence of UniProt Q9UJQ4 (whole entry, looked up): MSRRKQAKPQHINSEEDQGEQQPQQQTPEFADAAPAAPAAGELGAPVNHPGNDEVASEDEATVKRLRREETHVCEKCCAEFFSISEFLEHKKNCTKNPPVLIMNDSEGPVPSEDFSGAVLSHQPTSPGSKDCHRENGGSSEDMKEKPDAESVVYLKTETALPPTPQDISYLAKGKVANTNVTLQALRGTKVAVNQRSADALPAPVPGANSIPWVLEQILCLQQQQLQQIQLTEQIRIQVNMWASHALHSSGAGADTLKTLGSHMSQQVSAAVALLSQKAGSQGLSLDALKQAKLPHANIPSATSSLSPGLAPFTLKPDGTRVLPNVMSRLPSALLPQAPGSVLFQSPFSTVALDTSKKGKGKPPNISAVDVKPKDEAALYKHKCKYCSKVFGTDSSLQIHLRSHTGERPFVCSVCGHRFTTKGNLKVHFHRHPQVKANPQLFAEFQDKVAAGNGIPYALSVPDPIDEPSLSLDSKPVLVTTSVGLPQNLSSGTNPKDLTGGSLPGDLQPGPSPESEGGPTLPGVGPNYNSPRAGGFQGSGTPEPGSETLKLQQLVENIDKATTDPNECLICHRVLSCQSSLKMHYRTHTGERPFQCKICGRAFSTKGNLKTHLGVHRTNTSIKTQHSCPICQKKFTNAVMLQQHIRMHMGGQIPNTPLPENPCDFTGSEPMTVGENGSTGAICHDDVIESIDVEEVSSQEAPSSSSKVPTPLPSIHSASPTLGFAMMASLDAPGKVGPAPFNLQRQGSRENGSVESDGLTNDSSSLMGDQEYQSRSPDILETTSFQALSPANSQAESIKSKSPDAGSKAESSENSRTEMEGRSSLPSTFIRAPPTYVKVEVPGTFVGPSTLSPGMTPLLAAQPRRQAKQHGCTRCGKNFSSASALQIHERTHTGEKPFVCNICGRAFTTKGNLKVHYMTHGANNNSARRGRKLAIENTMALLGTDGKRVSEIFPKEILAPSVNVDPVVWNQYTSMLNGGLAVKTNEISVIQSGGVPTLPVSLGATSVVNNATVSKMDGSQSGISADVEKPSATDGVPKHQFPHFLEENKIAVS
Setting: 8-mer, flanks averaged, mean of replicates
GATTCTTA: 0.226
ACACTTAT: 0.222
AGCGTCTG: -0.157
AAATGCTA: 0.208
GGATTTAA: 0.143
CGACTTAG: 0.00324
GTCGCAGA: -0.131
ATGTGAAT: 0.224

Further values, each from its own experiment
PhoQ, residues 284 288 289 292 302 303 NLMGRA — fold induction (PhoP, residues 12 14 15 18 19 GHCSL (Escherichia coli, UniProt P23836); Sort-seq, measured: YFP reporter; E. coli; PhoQ-PhoP variant library, added: 10 µM Mg2+; relative to: high Mg2+ state, higher = stronger signaling): 16.8
CC(=O)Nc1c(I)cc(I)c(C(=O)O)c1I — viability (Huh-7; 10 µM, 24 h): 97.2%

Some of these lines once more (study 2):
GATTCTTA: 0.226
ACACTTAT: 0.222
AGCGTCTG: -0.157
